Measured values gathered from unrelated publications.
Each line is one published result; not all experiments were run side by side. ± marks the error that the study gave.
KCNH2: Voltage-gated inwardly rectifying potassium channel KCNH2 (KCNH2, Homo sapiens, UniProt Q12809)
UniProt Q12809, sequence (whole entry, looked up): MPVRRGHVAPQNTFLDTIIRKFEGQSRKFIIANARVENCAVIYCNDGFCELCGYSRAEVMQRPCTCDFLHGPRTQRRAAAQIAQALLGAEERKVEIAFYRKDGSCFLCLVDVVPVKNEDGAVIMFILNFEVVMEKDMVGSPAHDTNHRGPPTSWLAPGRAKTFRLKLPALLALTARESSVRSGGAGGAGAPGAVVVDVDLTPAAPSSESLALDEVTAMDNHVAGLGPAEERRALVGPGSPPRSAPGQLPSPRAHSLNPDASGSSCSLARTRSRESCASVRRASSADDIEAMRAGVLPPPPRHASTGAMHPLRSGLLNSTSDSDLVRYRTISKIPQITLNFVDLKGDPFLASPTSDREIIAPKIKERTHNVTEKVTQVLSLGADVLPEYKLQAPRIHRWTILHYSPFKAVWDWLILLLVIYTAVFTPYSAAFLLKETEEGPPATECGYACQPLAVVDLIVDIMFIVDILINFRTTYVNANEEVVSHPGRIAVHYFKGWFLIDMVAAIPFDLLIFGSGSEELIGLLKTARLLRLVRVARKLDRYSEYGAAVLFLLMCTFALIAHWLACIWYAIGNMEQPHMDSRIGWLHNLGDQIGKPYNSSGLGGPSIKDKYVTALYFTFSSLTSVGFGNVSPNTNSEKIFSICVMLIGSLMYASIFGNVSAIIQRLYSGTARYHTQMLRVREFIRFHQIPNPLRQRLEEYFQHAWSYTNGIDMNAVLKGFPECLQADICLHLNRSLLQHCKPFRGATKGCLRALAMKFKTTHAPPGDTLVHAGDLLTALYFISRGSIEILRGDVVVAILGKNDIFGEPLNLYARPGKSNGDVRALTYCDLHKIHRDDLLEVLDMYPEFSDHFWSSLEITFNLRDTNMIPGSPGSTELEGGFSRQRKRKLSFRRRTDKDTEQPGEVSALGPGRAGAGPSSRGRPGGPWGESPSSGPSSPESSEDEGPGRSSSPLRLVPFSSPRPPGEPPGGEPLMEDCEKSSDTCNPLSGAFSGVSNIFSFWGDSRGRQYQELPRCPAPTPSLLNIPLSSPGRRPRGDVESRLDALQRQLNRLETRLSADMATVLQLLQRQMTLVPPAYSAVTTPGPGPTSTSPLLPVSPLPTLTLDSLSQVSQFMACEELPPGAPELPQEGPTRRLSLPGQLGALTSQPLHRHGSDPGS
CYP2D6: Cytochrome P450 2D6 (CYP2D6, Homo sapiens, UniProt P10635)
UniProt P10635, sequence (whole entry, looked up): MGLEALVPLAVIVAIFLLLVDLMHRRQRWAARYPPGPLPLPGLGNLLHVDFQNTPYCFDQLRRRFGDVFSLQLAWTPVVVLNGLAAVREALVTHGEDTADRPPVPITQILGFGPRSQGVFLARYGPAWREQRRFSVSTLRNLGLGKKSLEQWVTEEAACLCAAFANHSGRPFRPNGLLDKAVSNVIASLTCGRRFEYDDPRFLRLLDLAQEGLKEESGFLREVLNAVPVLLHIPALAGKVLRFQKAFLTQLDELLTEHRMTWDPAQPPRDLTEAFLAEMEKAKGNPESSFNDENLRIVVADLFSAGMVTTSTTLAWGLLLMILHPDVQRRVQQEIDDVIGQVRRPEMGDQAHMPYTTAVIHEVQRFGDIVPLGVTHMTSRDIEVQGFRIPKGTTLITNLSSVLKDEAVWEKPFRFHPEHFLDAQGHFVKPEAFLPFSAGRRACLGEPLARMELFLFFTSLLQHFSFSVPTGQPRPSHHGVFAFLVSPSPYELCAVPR
UniProt P51589, sequence (whole entry, looked up): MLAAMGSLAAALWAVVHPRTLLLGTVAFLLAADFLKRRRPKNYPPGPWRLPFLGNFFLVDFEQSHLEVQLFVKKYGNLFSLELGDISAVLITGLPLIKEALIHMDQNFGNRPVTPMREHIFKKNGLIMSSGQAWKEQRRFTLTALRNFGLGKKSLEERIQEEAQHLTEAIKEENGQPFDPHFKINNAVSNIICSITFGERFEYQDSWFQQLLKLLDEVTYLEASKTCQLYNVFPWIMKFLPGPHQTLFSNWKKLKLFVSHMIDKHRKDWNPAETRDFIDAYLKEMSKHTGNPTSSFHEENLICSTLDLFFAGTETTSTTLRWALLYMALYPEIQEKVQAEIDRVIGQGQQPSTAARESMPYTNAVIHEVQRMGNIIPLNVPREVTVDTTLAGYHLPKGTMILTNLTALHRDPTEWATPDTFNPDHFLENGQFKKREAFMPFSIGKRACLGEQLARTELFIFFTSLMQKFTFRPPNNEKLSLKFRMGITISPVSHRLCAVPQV

With `CC(=O)N[C@H](C(=O)N[C@H](C(=O)N1CCC[C@H]1C(=O)NCC(=O)N[C@@H](CC(C)C)C(=O)N[C@@H](CCCCN)C(=O)N1CCC[C@H]1C(=O)N[C@@H](Cc1ccccc1)C(=O)N[C@H](C(=O)NCC(=O)NCC(=O)N[C@@H](Cc1ccc(O)cc1)C(=O)NCC(=O)N[C@@H](CCCNC(=N)N)C(=O)N[C@@H](CCCCN)C(=O)N[C@@H](CCCCN)C(=O)N[C@@H](CCCNC(=N)N)C(=O)N[C@@H](CCCNC(=N)N)C(=O)N[C@@H](CCC(N)=O)C(=O)N[C@@H](CCCNC(=N)N)C(=O)N[C@@H](CCCNC(=N)N)C(=O)N[C@@H](CCCNC(=N)N)C(N)=O)C(C)C)C(C)C)C(C)C` the degradation was ~20% (trypsin (pig); substrate, RP-HPLC; Tris buffer; 2.5 mg/mL, 0.1667 h, pH 8.0, 37 °C).
For `CC(C)C[C@H](NC(=O)[C@H](CC(C)C)NC(=O)[C@H](CCCCN)NC(=O)[C@H](Cc1ccccc1)NC(=O)[C@@H](NC(=O)[C@H](CCCNC(=N)N)NC(=O)[C@@H](N)CCCCN)C(C)C)C(=O)N[C@@H](CCCCN)C(=O)N[C@@H](CCCNC(=N)N)C(=O)N[C@@H](Cc1ccc(O)cc1)C(=O)N[C@@H](Cc1c[nH]c2ccccc12)C(=O)N[C@@H](CCCNC(=N)N)C(=O)N[C@@H](CCC(N)=O)C(=O)N[C@@H](CC(C)C)C(=O)N[C@@H](CCCCN)C(=O)N[C@@H](CCCCN)C(=O)N1CCC[C@H]1C(=O)N[C@H](C(=O)N[C@@H](CCCNC(=N)N)C(=O)NCCOCCOCC(=O)O)C(C)C`, “MIC after protease incubation” read “no effect” (trypsin or chymotrypsin; 0 to 6 h, 37 °C, with: protease ratio 50:1).
`CN[C@@H]1[C@H](O)[C@H](NC)[C@H]2O[C@]3(O)[C@H](O[C@@H]2[C@H]1O)O[C@H](C)C[C@H]3NC(=O)Cc1ccc(Cl)cn1` has an inhibition of 2% (KCNH2; 10 µM).
With `Cc1cc(-c2ccc3ccccc3c2)nnc1NCCN1CCN(C)CC1` the half-life was > 30 min (Cytochrome P450 2J2 (CYP2J2, Homo sapiens, UniProt P51589); substrate; recombinant enzyme; 1000 nM).
For `O=C(CN1C(=O)C2(CCN(C(=O)c3ccc4[nH]ncc4c3)CC2)c2c(Br)cccc21)NCC(F)(F)F`, the IC50 was 1.1 µM (CYP2D6; enzyme activity, inhibitor).
With `CCN(CC)CCOc1ccc(-c2nnn(Cc3ccc(OC)cc3)c2N)cc1` the IC50 was > 50 µM (Cytochrome P450 2B6 (CYP2B6, Homo sapiens, UniProt P20813); inhibitor).
For `C=C(C)C(=O)NCCCCCC(=O)NCC(=O)N[C@@H](C)C(=O)N[C@@H](CC(C)C)C(=O)N[C@H](C(=O)N1CCC[C@H]1C(=O)N[C@@H](CCCNC(=N)N)C(=O)NCC(=O)N[C@@H](C)C(=O)N[C@@H](CC(=O)O)C(=O)N[C@@H](CO)C(=O)NCC(=O)N[C@@H](CO)C(=O)NCC(N)=O)[C@@H](C)O`, the cleavage was 55% (α-chymotrypsin; substrate, HPLC; DPBS; 200 µM, 50 min, 37 °C, with: chymotrypsin 1.0 µM).
For `CNC(=O)C1CCCN(C(=O)C2CC3CCC2N3C(=O)[C@@H]2C[C@@H](O)CN2C(=O)NCc2cccc(Cl)c2F)C1` (mixture of isomers), the remaining activity was 108% (CYP3A4 (human); inhibitor, time-dependent inhibition; 50 µM, preincubated without NADPH, with: midazolam substrate; reference: negative control).
`CCc1nnc(-c2c(OC)cc(-c3cnc4cc(-c5cnn(C)c5)ccn34)cc2OC)o1` — result for “binding vs control”: 97.1% (KCNH2; ligand displacement, radioligand; 10 µM).
For `C[C@@H](c1ccc2nccn2c1)n1nnc2ncc(-c3cn[nH]c3)nc21`, the IC50 was 27 µM (CYP2D6; enzyme activity, inhibitor; human, liver microsomes).
With `O=C(CN1C(=O)C2(CCN(C(=O)c3cnc4[nH]ncc4c3)CC2)c2c(Cl)cccc21)NCC(F)(F)F` the IC50 was 4 µM (CYP2D6; enzyme activity, inhibitor).
`CC(=O)NCCCC[C@@H]1NC(=O)[C@H](Cc2c[nH]c3c(C)cccc23)NC(=O)[C@H]([C@@H](C)O)NC(=O)[C@H](CC(N)=O)NC(=O)[C@@H](NC(C)=O)C(C)(C)SSC(C)(C)[C@@H](C(=O)N[C@@H](Cc2ccc(OCCN)cc2)C(=O)N[C@@H](Cc2ccc3ccccc3c2)C(=O)NC2(C(=O)N[C@@H](CCC(=O)O)C(=O)N[C@@H](CC(N)=O)C(=O)N[C@@H](Cc3cccnc3)C(=O)N(C)CC(N)=O)CCOCC2)NC1=O` gave a fraction unbound of 92.4 ± 4.1% (human alpha-1-acid glycoprotein 0.14%; equilibrium dialysis; 0.01 µM).

A few entries again:
For `CNC(=O)C1CCCN(C(=O)C2CC3CCC2N3C(=O)[C@@H]2C[C@@H](O)CN2C(=O)NCc2cccc(Cl)c2F)C1` (mixture of isomers), the remaining activity was 108% (CYP3A4 (human); inhibitor, time-dependent inhibition; 50 µM, preincubated without NADPH, with: midazolam substrate; reference: negative control).
